Experimental data gathered from unrelated publications.
Every numbered part comes from another study and shows a few of its results, in no order. Substitutions count along the parent as printed.

Series 1 — technique: protein binding microarray; form: double-stranded DNA, one strand shown; matrix: in vitro; concentration: not given; relative to: not given; direction: higher = stronger binding
Target: Histone acetyltransferase KAT6A, winged helix 2, GST fusion (KAT6A, Homo sapiens, UniProt Q92794, residues 85-181)
Notes: 8-mer, flanks averaged, mean of 2 arrays, mostly near background
Target sequence (chain): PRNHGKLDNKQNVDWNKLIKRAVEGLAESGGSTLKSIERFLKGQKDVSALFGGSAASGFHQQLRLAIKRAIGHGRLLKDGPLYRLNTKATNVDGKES
Strand | E-score
CGAAGGGA | 0.0619
GCGAAGAC | -0.00796
GTTTAATA | 0.0344
CGAACGGA | 0.0539
GCATAACC | -0.114
CCGCACGC | 0.192
GTACACAA | 0.0214
ATTAGGGA | -0.154
AGATAAAA | 0.144
TATTATAA | 0.0502
AGTCGCTC | -0.139
CTCGGTTA | -0.0337
AGAACGTG | -0.0965
AAGCCGCT | 0.0966
CGACTTGA | -0.136
GCCAAGTA | -0.171

Series 2 — technique: RNAcompete; form: RNA; matrix: in vitro; concentration: 20 nM; notes: 7-mer, probes averaged, single round; relative to: mean of 7-mers; direction: higher = stronger binding
Target: PABPC1L2, full length, GST fusion (mouse, UniProt A0ABA7IW68)
Construct (chain): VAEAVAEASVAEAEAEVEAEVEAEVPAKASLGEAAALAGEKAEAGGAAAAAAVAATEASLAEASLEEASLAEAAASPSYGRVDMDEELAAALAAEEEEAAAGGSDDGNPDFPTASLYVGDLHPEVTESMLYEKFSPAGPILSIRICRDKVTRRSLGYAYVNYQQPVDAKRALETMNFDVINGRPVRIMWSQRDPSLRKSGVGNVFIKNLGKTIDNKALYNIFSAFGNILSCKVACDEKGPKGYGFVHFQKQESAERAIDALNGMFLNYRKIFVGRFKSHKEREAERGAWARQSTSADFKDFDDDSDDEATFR
Strand | 7-mer Z-score
UUGAUCC | -0.228
CAUCGGA | 0.0678
CGCGCCA | -0.286
UGAACUA | 0.000733
GUACCUC | -0.342
GGAUCGU | -0.209
AGAAUUU | -0.338
AUAAGUU | -0.119
CCCCCAC | -0.481
AUCGUCG | -0.356
AACGGCU | 0.0787
AUGCCAA | 0.0787
AUGCAAC | -0.0645
GUCCGAA | -0.00108
CAAGGCG | 0.202

Series 3 — technique: DHFR PCA, deep sequencing; matrix: yeast; together with: (+)-ABA 0.0091 µM; relative to: wild-type fitted maximum; direction: higher = stronger binding
Target: ABI1, truncated, D143A, DHFR fusion (Arabidopsis thaliana)
Notes: methotrexate growth selection, single substitutions
Starting sequence: PYL1, truncated, DHFR fusion (Arabidopsis thaliana); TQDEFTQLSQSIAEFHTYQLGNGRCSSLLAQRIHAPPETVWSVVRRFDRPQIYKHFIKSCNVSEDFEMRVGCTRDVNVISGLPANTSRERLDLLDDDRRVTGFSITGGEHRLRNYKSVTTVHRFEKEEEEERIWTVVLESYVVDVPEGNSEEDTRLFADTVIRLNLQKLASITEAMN
Substitution | relative binding score [%]
E4M | 19.1
S42Y | 0.929
S104F | -5.4
R155I | 3.06
A175C | 14.4
K116H | 7.04
D48L | -4.84
S150H | 3.73
S150I | -0.89
F56N | 2.66
D95R | -11.3
S150Y | -0.774
V136I | 12.1
F124T | 5.93

Series 4 — technique: RNA Bind-n-Seq; form: RNA; matrix: in vitro; concentration: 200 nM; notes: whole 134-nt RNA, ends assumed; together with: 150 mM KCl; relative to: input library; direction: higher = stronger binding
Target: Ras GTPase-activating protein-binding protein 1, full length (G3BP1, Homo sapiens, UniProt Q13283)
Chain of UniProt Q13283 (whole entry, looked up): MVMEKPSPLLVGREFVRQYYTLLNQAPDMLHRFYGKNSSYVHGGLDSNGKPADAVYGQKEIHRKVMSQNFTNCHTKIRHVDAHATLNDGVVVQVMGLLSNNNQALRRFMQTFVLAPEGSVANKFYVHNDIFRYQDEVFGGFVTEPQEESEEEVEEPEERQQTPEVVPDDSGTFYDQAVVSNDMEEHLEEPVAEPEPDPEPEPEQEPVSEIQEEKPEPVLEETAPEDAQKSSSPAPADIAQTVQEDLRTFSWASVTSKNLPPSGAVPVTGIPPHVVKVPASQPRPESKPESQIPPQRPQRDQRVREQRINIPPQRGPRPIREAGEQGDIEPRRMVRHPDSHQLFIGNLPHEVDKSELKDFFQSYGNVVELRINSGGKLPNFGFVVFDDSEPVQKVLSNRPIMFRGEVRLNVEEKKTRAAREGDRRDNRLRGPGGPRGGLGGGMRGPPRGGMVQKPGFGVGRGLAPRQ
Strand | log2 enrichment
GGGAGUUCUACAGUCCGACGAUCUCCUGUGCUACACAUCGUAUGUACCGAAUCGGGGAAAAAGGGGAGGGGUUUUUUUGGGGAAAGUAUUAUGUUACGCCGUUCGGAUCUGCAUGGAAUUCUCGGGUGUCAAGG | 0.621
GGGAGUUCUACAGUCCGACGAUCUGGGAGGUGGAUUUUGUUUAUUUUUUUAGCUCAUUUCCAGGGGUGGGAAUUUUUUUUUAAUAUGUGUCAUGAAUUAAGUUGUUUUUGAAAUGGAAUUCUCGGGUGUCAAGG | 0.321
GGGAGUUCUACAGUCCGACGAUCACCAUGCAGGUGGGCAGCUUUGGGAAGUGGGGCAAGGGGGGGAUAGGGAGGGGGGUAACACUUUGGGAACAGGUGGUCCCAGGUCGUUUCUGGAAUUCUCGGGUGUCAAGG | 1.43
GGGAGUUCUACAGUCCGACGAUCAGUCCUGUGCUACACAUCGUAUGUACCGAAUCGGAAAAAGGAAAAAGGGGAAAAAGGGAAAGUAUUAUGUUACGCCGUUCGGAUCUGCACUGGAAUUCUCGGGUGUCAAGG | -0.973
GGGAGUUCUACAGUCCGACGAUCCAAGUCCUGUGCUACACAUCGUAUGUACCGAAUCGGAAAGGAAAAAGGUUUUUGGAAAGUAUUAUGUUACGCCGUUCGGAUCUGCACUUCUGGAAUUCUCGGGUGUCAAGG | -1.33
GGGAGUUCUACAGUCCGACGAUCUGCAGCUCUCCGGCUGGGAUCCUGGUUGACGCCAUGUCCCAGAAGCACCUUCAGAUCAACCAGACAUUUGAGGAGCUGCGACUGGUCACGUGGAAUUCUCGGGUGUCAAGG | -1.78
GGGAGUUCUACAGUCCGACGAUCCAAGUCCUGUGCUACACAUCGUAUGUACCGAAUCGGGGCCCGGGGCCCGGCCCGGGAAAGUAUUAUGUUACGCCGUUCGGAUCUGCACUUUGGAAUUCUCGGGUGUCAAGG | -0.725
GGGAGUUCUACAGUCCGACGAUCCUGAAGAGUCUGAGGAUGCCCAAUCACAGAGCCAAGCAGAUGAAGAGGAGGAAGAUGAUGAUUUUGGGGUGGAGUACUUGCUUGCCAGGGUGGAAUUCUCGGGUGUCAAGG | 0.179
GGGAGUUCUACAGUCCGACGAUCGUCCUGUGCUACACAUCGUAUGUACCGAAUCGGAAAAAAGGGAAAAAAGGAAAAAAGGAAAGUAUUAUGUUACGCCGUUCGGAUCUGCACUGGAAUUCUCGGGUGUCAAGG | -1.04

For quick reference, copied from above (series 2):
Strand | 7-mer Z-score
GGAUCGU | -0.209
AGAAUUU | -0.338
AUAAGUU | -0.119
CCCCCAC | -0.481
AUCGUCG | -0.356
AACGGCU | 0.0787
